Measured values of several laboratories.
Parts stem from different laboratories: compare values within a part only.

Block 1
Target: PABPC1L2, full length, GST fusion (mouse, UniProt A0ABA7IW68)
Method: RNAcompete
Form: RNA
Matrix: in vitro
Concentration: 20 nM
Setting: 7-mer, probes averaged, single round
Reference: mean of 7-mers
Reading: higher = stronger binding
Target sequence (chain): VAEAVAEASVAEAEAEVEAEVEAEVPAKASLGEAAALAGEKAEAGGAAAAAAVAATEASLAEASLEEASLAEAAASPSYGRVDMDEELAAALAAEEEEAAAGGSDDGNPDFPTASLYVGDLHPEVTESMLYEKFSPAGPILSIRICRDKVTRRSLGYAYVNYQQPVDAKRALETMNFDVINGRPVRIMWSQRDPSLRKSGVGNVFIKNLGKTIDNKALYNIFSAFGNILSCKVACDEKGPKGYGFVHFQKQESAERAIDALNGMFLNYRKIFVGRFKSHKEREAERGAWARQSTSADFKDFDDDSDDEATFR
Strand	7-mer Z-score
ACUUGUC	-0.364
GCUCAAC	-0.206
CCCUUCC	-0.414
AGUAGAU	0.0243
GCUGAGC	0.0732

Block 2
Target: Sal-like protein 4, full length isoform B (SALL4, Homo sapiens, UniProt Q9UJQ4-2, residues 1-616)
Method: universal PBM
Form: double-stranded DNA, one strand shown
Matrix: in vitro
Concentration: not given
Setting: 8-mer, flanks averaged, mean of replicates
Reading: higher = stronger binding
Strand	E-score
ATTACTCC	0.074
CGGCTGAG	-0.288
AGCGCCTC	-0.269
CAGCAGAA	-0.0393
ATCGTCTG	-0.145

Block 3
Target: Prothrombin, mature alpha-thrombin (F2, Homo sapiens, UniProt P00734)
Method: aptamer microarray, sandwich
Form: DNA with 2'F-ANA
Matrix: in vitro
Concentration: 200 nM
Setting: whole 15-mer aptamer, many near background
Together with: Cy3 exosite-II aptamer, 400 nM
Reading: higher = stronger binding
Strand	mean fluorescence intensity [a.u.]
GGTTGGTGTGGTTGG (2'F-ANA at 3 4 5 8 9 10 11 12)	60.4
GGTTGGTGTGGTTGG (2'F-ANA at 2 4 5 8 14 15)	48.7
GGTTGGTGTGGTTGG (2'F-ANA at 2 4 7 14)	141
GGTTGGTGTGGTTGG (2'F-ANA at 1 2 4 5 8 9 12 13)	76.9

Single results of other studies
Molecule	target	assay	system	conditions	how to read	measurement	value
PhoQ, residues 284 288 289 292 302 303 ASVMEA	PhoP, residues 12 14 15 18 19 NQAHL (Escherichia coli, UniProt P23836)	Sort-seq, measured: YFP reporter	E. coli	PhoQ-PhoP variant library, together with: 10 µM Mg2+	reference: high Mg2+ state, higher = stronger signaling	fold induction	2.59
